Experimental data collected from several papers.
Each line is one published result; not all experiments were run side by side. Numbers after ± are the reported error.

SMILES | assay | system | conditions | tissue uptake
N=C(N)NCCC[C@@H]1NC(=O)[C@H](CCCCNC(=O)CC[C@H](NC(=O)[C@H]2O[C@@H](CNC(=O)c3ccc(F)cc3)[C@H](O)[C@@H](O)[C@H]2O)C(=O)NCCCC[C@@H]2NC(=O)[C@@H](Cc3ccc(O)cc3)NC(=O)[C@H](CC(=O)O)NC(=O)CNC(=O)[C@H](CCCNC(=N)N)NC2=O)NC(=O)[C@@H](Cc2ccc(O)cc2)NC(=O)[C@H](CC(=O)O)NC(=O)CNC1=O [fluorine-18 labelled] | small-animal PET | female athymic nude mice, U-87 MG xenograft, muscle | intravenous, 3.7 MBq, 60 min | 0.37 ± 0.06 %ID/g
NC12CNCCNCC(NCc3ccc(CNC(=O)CCCC(=O)NCc4ccc(-c5nncnn5)cc4)cc3)(CNCCNC1)CNCCNC2.[64Cu+2] | – | athymic nude mice SW1222 xenograft, lung | 1 h post injection, 24 h accumulation interval, with: huA33-TCO pretargeting | 1.65 ± 0.51 %ID/g
CCCC[C@H](NC(=O)CNC(=O)CNC(=O)CN1CCN(CC(=O)O)CCN(CC(=O)O)CCN(CC(=O)O)CC1)C(=O)N[C@H]1CC(=O)NCCCC[C@@H](C(N)=O)NC(=O)[C@H](Cc2c[nH]c3ccccc23)NC(=O)[C@H](CCCNC(=N)N)NC(=O)[C@@H](Cc2ccccc2)NC(=O)[C@H](Cc2c[nH]cn2)NC1=O [lead-203 labelled] | – | normal C57 mice, intestine | intravenous, 0.056 MBq, 2 h | 1.43 ± 0.58 %ID
CC(C)[C@H](NC(=O)[C@@H]1CCCN1C(=O)[C@H](CCCNC(=N)N)NC(=O)[C@H](CS)NC(=O)[C@H](Cc1c[nH]c2ccccc12)NC(=O)[C@H](CCCNC(=N)N)NC(=O)[C@@H](Cc1ccccc1)NC(=O)[C@H](Cc1c[nH]cn1)NC(=O)[C@H](CCC(=O)O)NC(=O)[C@H](CS)NC(=O)[C@H](CS)NC(=O)COCCOCCNC(=O)[C@@H]1CC(=O)N[C@@H](CCCNC(=N)N)C(=O)NCC(=O)N[C@@H](CC(=O)O)C(=O)N[C@H](Cc2ccc(O)cc2)C(=O)N1)C(N)=O [technetium-99m labelled] | – | nude mice M21 xenograft, intestines | intravenous, 0.037 MBq, 2 h | 1.66 ± 0.37 %ID
CC(F)C(=O)NCCOCCOCCOCC(=O)N[C@@H](CCC(=O)NCCCC[C@@H]1NC(=O)[C@@H](Cc2ccc(O)cc2)NC(=O)[C@H](CC(=O)O)NC(=O)CNC(=O)[C@H](CCCNC(=N)N)NC1=O)C(=O)NCCCC[C@@H]1NC(=O)[C@@H](Cc2ccc(O)cc2)NC(=O)[C@H](CC(=O)O)NC(=O)CNC(=O)[C@H](CCCNC(=N)N)NC1=O (some centres unmarked) [fluorine-18 labelled] | small-animal PET | female athymic nude mice, U-87 MG xenograft, liver | intravenous, 3.7 MBq, 60 min | 0.63 ± 0.09 %ID/g
CCCC[C@H](NC(=O)CNC(=O)CNC(=O)CN1CCN(CC(=O)O)CCN(CC(=O)O)CC1)C(=O)N[C@H]1CC(=O)NCCCC[C@@H](C(N)=O)NC(=O)[C@H](Cc2c[nH]c3ccccc23)NC(=O)[C@H](CCCNC(=N)N)NC(=O)[C@@H](Cc2ccccc2)NC(=O)[C@H](Cc2c[nH]cn2)NC1=O [gallium-67 labelled] | – | C57 mice, female, B16/F1 melanoma, intestines | intravenous, 0.037 MBq, 4 h | 0.91 ± 0.05 %ID
CC(F)C(=O)NC[C@@H]1O[C@H](C(=O)NCCCC[C@@H]2NC(=O)[C@@H](Cc3ccccc3)NC(=O)[C@H](CC(=O)O)NC(=O)CNC(=O)[C@H](CCCNC(=N)N)NC2=O)[C@H](O)[C@H](O)[C@H]1O (some centres unmarked) [fluorine-18 labelled] | small-animal PET | female athymic nude mice, U-87 MG xenograft, kidney | intravenous, 3.7 MBq, 120 min | 0.71 ± 0.04 %ID/g
N=C(N)NCCC[C@H](NC(=O)[C@@H]1CSSC[C@H](NC(=O)[C@H](Cc2ccc3ccccc3c2)NC(=O)[C@H](CCCNC(=N)N)NC(=O)[C@H](CCCNC(=N)N)NC(=O)CN2CCN(CC(=O)O)CCN(CC(=O)O)CCN(CC(=O)O)CC2)C(=O)N[C@@H](Cc2ccc(O)cc2)C(=O)N[C@@H](CCCNC(N)=O)C(=O)N[C@@H](CCCCN)C(=O)N[C@H](CCCCN)C(=O)N2CCC[C@H]2C(=O)N[C@@H](Cc2ccc(O)cc2)C(=O)N[C@@H](CCCNC(=N)N)C(=O)N[C@@H](CCCNC(N)=O)C(=O)N1)C(N)=O [copper-64 labelled] | – | female athymic nude mice, blood | intravenous, 50 µCi, 4 h | 0.34 ± 0.02 %ID/g
CN1C(=O)[C@@H](Cc2ccc(O)c(I)c2)NC(=O)CNC(=O)[C@H](Cc2ccc3ccccc3c2)NC(=O)[C@H](CCCNC(=N)N)NC(=O)[C@H]1CCCNC(=O)c1ccc(CNC(=O)CN2CCN(CC(=O)O)CCN(CC(=O)O)CCN(CC(=O)O)CC2)cc1 [lutetium-177 labelled] | refers to: 177Lu radioactivity | female CB-17 SCID mice, Daudi xenograft, uterus | intravenous, 0.16 nmol per mouse, 1 h | 1.1 ± 0.2 %ID/g
CC(C)[C@H](NC(=O)[C@@H]1CCCN1C(=O)[C@H](CCCNC(=N)N)NC(=O)[C@H](CS)NC(=O)[C@H](Cc1c[nH]c2ccccc12)NC(=O)[C@H](CCCNC(=N)N)NC(=O)[C@@H](Cc1ccccc1)NC(=O)[C@H](Cc1c[nH]cn1)NC(=O)[C@H](CCC(=O)O)NC(=O)[C@H](CS)NC(=O)[C@H](CS)NC(=O)[C@@H]1CC(=O)N[C@@H](CCCNC(=N)N)C(=O)NCC(=O)N[C@@H](CC(=O)O)C(=O)N[C@H](Cc2ccc(O)cc2)C(=O)N1)C(N)=O [technetium-99m labelled] | – | C57 mice B16/F1 melanoma female, bone | iv, 2 h, with: NDP-MSH 10 µg co-injected | 0.59 ± 0.2 %ID/g
N=C(N)NCCC[C@H](NC(=O)CON=C[C@H](F)[C@@H](O)[C@H](O)[C@H](O)CO)C(=O)NCC(=O)N[C@@H](CC(=O)O)C(=O)O [fluorine-18 labelled] | – | nude mice U-87 MG tumour, muscle | intravenous, 2 h | 0.09 ± 0.03 %ID/g
O=C([O-])CN1CCN(CC(=O)[O-])CCN(CC(=O)[O-])CCN(CC(=O)[O-])CC1.[64Cu+2] | – | nude athymic mice, healthy, femur | intravenous, 24 h, 64Cu label | 0.27 %ID/g
CCCC[C@H](NC(=O)CN1CCC(NC(=O)CN2CCN(CC(=O)O)CCN(CC(=O)O)CCN(CC(=O)O)CC2)CC1)C(=O)N[C@H]1CC(=O)NCCCC[C@@H](C(N)=O)NC(=O)[C@H](Cc2c[nH]c3ccccc23)NC(=O)[C@H](CCCNC(=N)N)NC(=O)[C@@H](Cc2ccccc2)NC(=O)[C@H](Cc2c[nH]cn2)NC1=O [gallium-68 labelled] | – | C57BL/6J mice male B16-F10 tumour, liver | 2 h post injection, unblocked | 0.7 %ID/g
CCCC[C@H](NC(=O)CNC(=O)CNC(=O)CN1CCN(CC(=O)O)CCN(CC(=O)O)CCN(CC(=O)O)CC1)C(=O)N[C@H]1CC(=O)NCCCC[C@@H](C(N)=O)NC(=O)[C@H](Cc2c[nH]c3ccccc23)NC(=O)[C@H](CCCNC(=N)N)NC(=O)[C@@H](Cc2ccccc2)NC(=O)[C@H](Cc2c[nH]cn2)NC1=O [gallium-67 labelled] | – | female C57 mice, B16/F1 melanoma, kidneys | intravenous, 0.037 MBq, 2 h | 8.9 ± 1.81 %ID/g
O=C([O-])c1cccc(CN(CCN(Cc2cn(Cc3ccccc3)nn2)Cc2cccc(C(=O)[O-])n2)Cc2cn(Cc3ccccc3)nn2)n1.[64Cu+2] | – | healthy athymic nude mice, skin | intravenous, 4 h | 2.38 %ID/g
N=C(N)NCCC[C@@H]1NC(=O)[C@H](CCCCNC(=O)CON=C[C@H](F)[C@@H](O)[C@H](O)[C@H](O)CO)NC(=O)[C@@H](Cc2ccc(O)cc2)NC(=O)[C@H](CC(=O)O)NC(=O)CNC1=O [fluorine-18 labelled] | – | nude mice U-87 MG tumour, kidney | intravenous, 2 h | 16.1 ± 13 %ID/g
CC(F)C(=O)NC[C@@H]1O[C@H](C(=O)N[C@@H](CCC(=O)NCCCC[C@@H]2NC(=O)[C@@H](Cc3ccc(O)cc3)NC(=O)[C@H](CC(=O)O)NC(=O)CNC(=O)[C@H](CCCNC(=N)N)NC2=O)C(=O)NCCCC[C@@H]2NC(=O)[C@@H](Cc3ccc(O)cc3)NC(=O)[C@H](CC(=O)O)NC(=O)CNC(=O)[C@H](CCCNC(=N)N)NC2=O)[C@H](O)[C@H](O)[C@H]1O (some centres unmarked) [fluorine-18 labelled] | small-animal PET | female athymic nude mice, U-87 MG xenograft, muscle | intravenous, 3.7 MBq, 60 min | 0.27 ± 0.07 %ID/g
N=C(N)NCCC[C@H](NC(=O)[C@@H]1CSSC[C@H](NC(=O)[C@H](Cc2ccc3ccccc3c2)NC(=O)[C@H](CCCNC(=N)N)NC(=O)[C@H](CCCNC(=N)N)NC(=S)Nc2ccc(C[C@H]3CN(CC(=O)O)CCN(CC(=O)O)CCN3CC(=O)O)cc2)C(=O)N[C@@H](Cc2ccc(O)cc2)C(=O)N[C@@H](CCCNC(N)=O)C(=O)N[C@@H](CCCCN)C(=O)N[C@H](CCCCN)C(=O)N2CCC[C@H]2C(=O)N[C@@H](Cc2ccc(O)cc2)C(=O)N[C@@H](CCCNC(=N)N)C(=O)N[C@@H](CCCNC(N)=O)C(=O)N1)C(N)=O [copper-64 labelled] | PET | tumour-bearing mice, blood | 100 µCi, 4 h | 0.13 ± 0.02 %ID/g
CCCC[C@@H]1NC(=O)[C@@H](NC(=O)[C@H](CCC(=O)O)NC(=O)CNC(=O)CN2CCN(CC(=O)O)CCN(CC(=O)O)CCN(CC(=O)O)CC2)CCCCNC(=O)C[C@@H](C(N)=O)NC(=O)[C@H](C(C)C)NC(=O)[C@@H]2CCCN2C(=O)[C@H](CCCNC(=N)N)NC(=O)CNC(=O)[C@H](Cc2c[nH]c3ccccc23)NC(=O)[C@H](CCCNC(=N)N)NC(=O)[C@@H](Cc2ccccc2)NC(=O)[C@H](Cc2c[nH]cn2)NC(=O)[C@H](CCC(=O)O)NC1=O [gallium-67 labelled] | – | C57 mice, B16/F10 lung metastases, bone | intravenous, 0.037 MBq/mouse, 2 h | 0.16 ± 0.09 %ID/g
O=C([O-])CN1CCN(CC(=O)[O-])CC(Cc2ccc(NC(=S)NCCOCCOCCOCCOCCOCCOCCOCCNC(=O)CCCC(=O)NCc3ccc(-c4nncnn4)cc3)cc2)N(CC(=O)[O-])CC1.[64Cu+2] (centres unmarked) | biodistribution | healthy athymic nude mice, kidneys | 1 h p.i. | 1.5 ± 0.2 %ID/g

A few entries again:
SMILES | assay | system | conditions | tissue uptake
CCCC[C@H](NC(=O)CN1CCC(NC(=O)CN2CCN(CC(=O)O)CCN(CC(=O)O)CCN(CC(=O)O)CC2)CC1)C(=O)N[C@H]1CC(=O)NCCCC[C@@H](C(N)=O)NC(=O)[C@H](Cc2c[nH]c3ccccc23)NC(=O)[C@H](CCCNC(=N)N)NC(=O)[C@@H](Cc2ccccc2)NC(=O)[C@H](Cc2c[nH]cn2)NC1=O [gallium-68 labelled] | – | C57BL/6J mice male B16-F10 tumour, liver | 2 h post injection, unblocked | 0.7 %ID/g
CCCC[C@H](NC(=O)CNC(=O)CNC(=O)CN1CCN(CC(=O)O)CCN(CC(=O)O)CCN(CC(=O)O)CC1)C(=O)N[C@H]1CC(=O)NCCCC[C@@H](C(N)=O)NC(=O)[C@H](Cc2c[nH]c3ccccc23)NC(=O)[C@H](CCCNC(=N)N)NC(=O)[C@@H](Cc2ccccc2)NC(=O)[C@H](Cc2c[nH]cn2)NC1=O [gallium-67 labelled] | – | female C57 mice, B16/F1 melanoma, kidneys | intravenous, 0.037 MBq, 2 h | 8.9 ± 1.81 %ID/g
O=C([O-])c1cccc(CN(CCN(Cc2cn(Cc3ccccc3)nn2)Cc2cccc(C(=O)[O-])n2)Cc2cn(Cc3ccccc3)nn2)n1.[64Cu+2] | – | healthy athymic nude mice, skin | intravenous, 4 h | 2.38 %ID/g
